Assay results of several laboratories.
± marks the error that the study gave.

`NS(=O)(=O)c1ccc(/N=N/c2ccc(O)c(/C=N/c3nccs3)c2)cc1` gave an IC50 of 16.4 ± 0.33 µM (DPPH radical scavenging; 60 min).
`CC(=O)C1=C(C)NC(=O)NC1c1cccc(Cl)c1` (stereo not drawn) has an IC50 of 280 µM (ferric reducing power, FRAP).
For `BP(=O)(OP(=O)([O-])OC[C@H]1O[C@@H](n2c[n+](C)c3c(=O)[nH]c(N)nc32)[C@H](O)[C@@H]1O)OP(=O)([O-])OC[C@H]1O[C@@H](n2c[n+](C)c3c(=O)[nH]c(N)nc32)[C@H](O)[C@@H]1O`, the IC50 was 2.76 µM (cap-dependent translation, inhibitor; rabbit reticulocyte lysate; pre-incubated 60 min before mRNA; baseline: m7GpppG).
`C[n+]1cn([C@@H]2O[C@H](COP(=O)([S-])OP(=O)(O)OP(=O)(O)OC[C@H]3O[C@@H](n4cnc5c(NCCCCCCN)ncnc54)[C@H](O)[C@@H]3O)[C@@H](O)[C@H]2O)c2nc(N)nc(O)c21` (mixture of isomers) has an IC50 of 10.8 ± 1.7 µM (cap-dependent translation; rabbit reticulocyte lysate; 1 h preincubation, added: capped luciferase mRNA).
`NC(=O)COc1ccc2c(=O)c(OCC(N)=O)c(-c3ccc(OCC(N)=O)c(OCC(N)=O)c3)oc2c1` gave an IC50 of 33.8 µM (DPPH radical scavenging; methanol; 30 min, added: DPPH 50 µM).
For `C#CCNC(=O)CNC(=O)CNC(=O)CNC(=O)[C@@H]1CCCN1C(=O)[C@H](CCCCN)NC(=O)[C@H](CCCCN)NC(=O)[C@H](CCCCN)NC(=O)[C@H](CCCNC(=N)N)NC(=O)[C@H](CCCCN)NC(=O)[C@@H](NC(=O)CNC(=O)CN)C(C)C`, the IC50 was > 250 µM (translation, luciferase reporter; rabbit reticulocyte lysate).
With `Sc1nnc(-c2ccccc2Cl)o1` the IC50 was 105 ± 3.4 µM (H2O2 scavenging).
With `CC(=O)C1=C(C)NC(=O)NC1c1ccccc1` (stereo not drawn) the IC50 was 44.5 µM (nitric oxide scavenging).
`CCCCCCCCCCCCCCCCCCCCCCCCCCCCCCOC(=O)/C=C/c1ccc(O)cc1` has an IC50 of > 100 µg/mL (oxidative burst, luminol chemiluminescence; human whole blood; added: zymosan).
With `CCCCSc1nnc(-c2ccccc2Cl)o1` the IC50 was 61.9 ± 1.3 µM (H2O2 scavenging).
`CC[C@H](C)[C@H](NC(C)=O)C(=O)N[C@H]1CSSC[C@@H](C(=O)N[C@@H](CC(C)C)C(N)=O)NC(=O)[C@H](CCCNC(=N)N)NC(=O)[C@H](Cc2c[nH]cn2)NC(=O)[C@H](C)NC(=O)CN(C)C(=O)[C@H](Cc2c[nH]c3ccccc23)NC(=O)[C@H](CC(=O)O)NC(=O)[C@H](CCC(N)=O)NC(=O)[C@H](Cc2cn(C)c3ccccc23)NC(=O)[C@H](C(C)C)NC1=O` gave an IC50 of 0.108 µM (complement activation, ELISA, refers to: C3 fragment deposition; human serum; classical pathway).
The IC50 of `CC[C@H]1OC(=O)[C@H](C)C(=O)[C@H](C)[C@@H](O[C@@H]2O[C@H](C)C[C@H](N(C)C)[C@H]2O)[C@](C)(OC)C[C@@H](C)C2=NCCN3C(=O)O[C@@]1(C)[C@H]3[C@H]2C` is reported as > 250 µM (translation, luciferase reporter; rabbit reticulocyte lysate).
`Sc1nnc(-c2ccccc2)o1` gave an IC50 of 112 ± 2.3 µM (nitric oxide scavenging).
`CCCCCCCCCCCCCCCCCCCCCCCC(=O)OCC(O)CO` (stereo not drawn) has an IC50 of > 100 µg/mL (oxidative burst, luminol chemiluminescence; human whole blood; added: zymosan).
`COc1cccc(C2NC(=O)NC(C)=C2C(C)=O)c1` (stereo not drawn) has an IC50 of 217 µM (ferric reducing power, FRAP).
`Nc1ccc(-c2nnc(S)o2)cc1` gave an IC50 of 47.7 ± 3.3 µM (H2O2 scavenging).
`CC(C)(C)OC(=O)C(NCc1ccc(CCC(=O)NO)nc1)C1CCCCC1` (stereo not drawn) gave an IC50 of 1.66 µM (refers to: TNF-alpha; human whole blood; overnight, added: LPS 200 ng/mL).
`CCCCSc1nnc(-c2ccc(C(C)(C)C)cc2)o1` gave an IC50 of 76.5 ± 1.1 µM (nitric oxide scavenging).
`CC(=O)C1=C(C)NC(=O)NC1c1ccc(Cl)cc1` (stereo not drawn) has an IC50 of 144 µM (ferric reducing power, FRAP).
The IC50 of `CCCCn1cc(C(=O)O)c(=O)c2cc(F)c(Nc3cc(OC)c(OC)c(OC)c3)c(N)c21` is reported as 105 ± 8.77 µg/mL (DPPH radical scavenging; 30 min).
`CC(=O)[O-].[Cu+2].[O-]c1ccc(Br)cc1C=NCCN1CCOCC1` has an IC50 of 160 µM (DPPH radical scavenging).
The IC50 of `CCCCn1cc(C(=O)O)c(=O)c2cc(F)c(Nc3cccc(OC)c3)c([N+](=O)[O-])c21` is reported as 1750 ± 174 µg/mL (DPPH radical scavenging; 30 min).
For `CC(=O)c1cnc(N)nc1N1CC[C@H]1c1nn2ccc(Cl)c2c(=O)n1-c1ccccc1`, the IC50 was 0.07 µM (Th17 differentiation, refers to: IFNγ; healthy donor whole blood).
`C#CCNC(=O)CNC(=O)CNC(=O)[C@H](Cc1ccc(O)cc1)NC(=O)[C@H](Cc1c[nH]cn1)NC(=O)[C@H](Cc1ccccc1)NC(=O)[C@H](Cc1c[nH]cn1)NC(=O)[C@H](CC(C)C)NC(=O)[C@H](Cc1c[nH]cn1)NC(=O)[C@H](Cc1ccccc1)NC(=O)[C@@H](N)Cc1ccccc1` has an IC50 of > 1000 µM (translation, luciferase reporter; Escherichia coli S30 extract).
`CC(=O)C1=C(C)NC(=O)NC1c1ccc(F)cc1` (stereo not drawn) has an IC50 of 201 µM (ferric reducing power, FRAP).
The IC50 of `CCCCSc1nnc(-c2cc(Cl)ccc2Cl)o1` is reported as 50.3 ± 3.2 µM (H2O2 scavenging).
`CC(=O)C1=C(C)NC(=O)NC1c1ccc(F)cc1F` (stereo not drawn) has an IC50 of 140 µM (nitric oxide scavenging).
For `CCCCn1cc(C(=O)O)c(=O)c2cc(F)c(Nc3ccc(OC)cc3)c([N+](=O)[O-])c21`, the IC50 was 30.7 ± 6.1 µg/mL (DPPH radical scavenging; 30 min).
For `CONC(=O)[C@H]1[C@@H](O)[C@@]2(O)c3c(cc(OC)nc3OC)O[C@@]2(c2ccc(C#N)cc2)[C@@H]1c1ccccc1`, the IC50 was 0.043 ± 0.004 µM (cap-dependent translation, FLuc reporter; Krebs-2 cell extract).
The IC50 of `NS(=O)(=O)c1ccc(/N=N/c2ccc(O)c(/C=N/c3cc(Cl)ccc3O)c2)cc1` is reported as 13.7 ± 1.56 µM (DPPH radical scavenging; 60 min).
`CC(=O)C1=C(C)NC(=O)NC1c1cccc(Br)c1` (stereo not drawn) has an IC50 of 116 µM (nitric oxide scavenging).
For `NS(=O)(=O)c1ccc(/N=N/c2ccc(O)c(/C=N/c3ccccn3)c2)cc1`, the IC50 was 15.2 ± 1.77 µM (DPPH radical scavenging; 60 min).
With `CC(C)CCCC(C)C1CCC2C3CC=C4CC(OC(=O)CCC(=O)NCCCCCCNC(=O)O[C@H]5[C@@H](O)[C@H](n6cnc7c(=O)[nH]c(N)nc76)O[C@@H]5COP(=O)(O)OP(=O)([O-])OP(=O)(O)OC[C@H]5O[C@@H](n6c[n+](C)c7c(O)nc(N)nc76)[C@H](O)[C@@H]5O)CCC4(C)C3CCC12C` (stereo partly drawn) the IC50 was 26.1 ± 5 µM (cap-dependent translation; rabbit reticulocyte lysate; 1 h preincubation, added: capped luciferase mRNA).
`CCCCSc1nnc(-c2cc([N+](=O)[O-])ccc2Cl)o1` has an IC50 of 45.5 ± 1.2 µM (superoxide scavenging, pyrogallol).
With `CCCCCC(O)C=CC1C2CC(CO2)C1CC=CCCCC(=O)O` (stereo not drawn) the IC50 was 0.00631 µM (vasoconstriction, pressure myography; mouse third-order mesenteric arteries).
`CC(=O)C1=C(C)NC(=O)NC1c1cccc(C)c1` (stereo not drawn) gave an IC50 of 203 µM (nitric oxide scavenging).
The IC50 of `O=[N+]([O-])c1ccc(Cl)c(-c2nnc(S)o2)c1` is reported as 46.6 ± 1.5 µM (H2O2 scavenging).
For `CC[C@H](C)[C@H](NC(C)=O)C(=O)N[C@H]1CSCC[C@@H](C(=O)N(C)[C@H](C(N)=O)[C@@H](C)CC)NC(=O)[C@H](CCCNC(=N)N)NC(=O)[C@H](Cc2c[nH]cn2)NC(=O)[C@H](C)NC(=O)CN(C)C(=O)[C@H](Cc2c[nH]c3ccccc23)NC(=O)[C@H](CC(=O)O)NC(=O)[C@H](CCC(N)=O)NC(=O)[C@H](Cc2cn(C)c3ccccc23)NC(=O)[C@H](C(C)C)NC1=O`, the IC50 was 0.27 ± 0.08 µM (classical complement activation, inhibitor, C3b deposition ELISA; normal human plasma; 15 min, plasma 1:80).
For `CO[C@@H]1[C@H](O)[C@@H](COP(=O)(O)OP(=O)([S-])OP(=O)(S)OC[C@H]2O[C@@H](n3cnc4c(=O)[nH]c(N)nc43)[C@H](O)[C@@H]2O)O[C@H]1n1c[n+](C)c2c(O)nc(N)nc21` (mixture of isomers), the IC50 was 2.3 ± 0.2 µM (cap-dependent translation, inhibitor; rabbit reticulocyte lysate).

Excerpt of the above:
For `CC[C@H](C)[C@H](NC(C)=O)C(=O)N[C@H]1CSCC[C@@H](C(=O)N(C)[C@H](C(N)=O)[C@@H](C)CC)NC(=O)[C@H](CCCNC(=N)N)NC(=O)[C@H](Cc2c[nH]cn2)NC(=O)[C@H](C)NC(=O)CN(C)C(=O)[C@H](Cc2c[nH]c3ccccc23)NC(=O)[C@H](CC(=O)O)NC(=O)[C@H](CCC(N)=O)NC(=O)[C@H](Cc2cn(C)c3ccccc23)NC(=O)[C@H](C(C)C)NC1=O`, the IC50 was 0.27 ± 0.08 µM (classical complement activation, inhibitor, C3b deposition ELISA; normal human plasma; 15 min, plasma 1:80).
For `C#CCNC(=O)CNC(=O)CNC(=O)CNC(=O)[C@@H]1CCCN1C(=O)[C@H](CCCCN)NC(=O)[C@H](CCCCN)NC(=O)[C@H](CCCCN)NC(=O)[C@H](CCCNC(=N)N)NC(=O)[C@H](CCCCN)NC(=O)[C@@H](NC(=O)CNC(=O)CN)C(C)C`, the IC50 was > 250 µM (translation, luciferase reporter; rabbit reticulocyte lysate).
`CC(=O)[O-].[Cu+2].[O-]c1ccc(Br)cc1C=NCCN1CCOCC1` has an IC50 of 160 µM (DPPH radical scavenging).
The IC50 of `NS(=O)(=O)c1ccc(/N=N/c2ccc(O)c(/C=N/c3cc(Cl)ccc3O)c2)cc1` is reported as 13.7 ± 1.56 µM (DPPH radical scavenging; 60 min).
